Experimental data from different studies.
A part holds a random share of what one study measured. “And” joins repeats or separate records; there may be more than shown.

Block 1 — observed: enzyme activity; mode: inhibitor; tested at: 0.5 µM; relative to: control
Target: Cytoplasmic tyrosine-protein kinase BMX (BMX, Homo sapiens, UniProt P51813)
Chain of UniProt P51813 (whole entry, looked up): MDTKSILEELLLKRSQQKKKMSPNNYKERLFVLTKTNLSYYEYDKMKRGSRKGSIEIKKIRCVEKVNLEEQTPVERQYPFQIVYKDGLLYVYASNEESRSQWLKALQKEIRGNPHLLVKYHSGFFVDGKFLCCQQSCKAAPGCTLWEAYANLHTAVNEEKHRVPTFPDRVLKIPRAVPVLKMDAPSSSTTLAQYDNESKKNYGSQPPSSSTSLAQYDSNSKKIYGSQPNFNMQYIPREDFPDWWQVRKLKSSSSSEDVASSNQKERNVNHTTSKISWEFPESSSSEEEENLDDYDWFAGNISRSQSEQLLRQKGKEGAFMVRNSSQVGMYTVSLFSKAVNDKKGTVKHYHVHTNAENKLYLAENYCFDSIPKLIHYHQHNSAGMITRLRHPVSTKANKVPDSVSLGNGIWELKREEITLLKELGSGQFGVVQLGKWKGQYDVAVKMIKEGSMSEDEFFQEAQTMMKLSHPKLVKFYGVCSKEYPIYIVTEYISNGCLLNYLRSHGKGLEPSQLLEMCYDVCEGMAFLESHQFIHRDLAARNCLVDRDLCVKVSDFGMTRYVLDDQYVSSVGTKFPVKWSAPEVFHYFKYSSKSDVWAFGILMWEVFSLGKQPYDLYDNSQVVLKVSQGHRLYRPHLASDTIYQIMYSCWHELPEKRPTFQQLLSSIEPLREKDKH
| Structure (SMILES) | remaining activity [%] |
| --- | --- |
| O=S(=O)(NCCNC/C=C/c1ccc(Br)cc1)c1cccc2cnccc12 | 102 |
| Nc1ncnc2c1cnn2-c1ccccc1 | 96.8 |
| O=C1Cc2c([nH]c3ccc([N+](=O)[O-])cc23)-c2ccccc2N1 | 110 |
| COc1ccc(S(=O)(=O)N(CCO)c2ccccc2CN(C)CC=Cc2ccc(Cl)cc2)cc1 | 101 |
| CC(C)(C)n1nc(Cc2cccc3ccccc23)c2c(N)ncnc21 | 25.2 |
| NC(=O)c1ccc(N(C(N)=O)c2c(F)cccc2F)nc1-c1ccc(F)cc1F | 108 |
| CSc1nc(-c2ccnc(N[C@@H](C)c3ccccc3)c2)c(-c2ccc(F)cc2)[nH]1 (racemic) | 102 |
| N#CC(=C(N)Sc1ccc(N)cc1)c1ccccc1C(F)(F)F | 99.7 |
| CC[n+]1c(/C=C/N(C)c2ccccc2)n(-c2ccccc2)c2ccc(-c3nc4ccccc4s3)cc21 | 108 |
| Cc1cc(Nc2nc(-c3ccccc3)nc3ccccc23)n[nH]1 | 41.1 |
| O=C1NC(=O)C(c2c[nH]c3ccccc23)=C1c1c[nH]c2ccccc12 | 100 |
| Cc1ccc(NC2=CC(=O)c3sc(C)nc3C2=O)cc1 | 100 |
| Oc1ccc(Nc2nc(-c3ccc(Cl)cc3)cs2)cc1 | 103 |
| CCCC(=O)Oc1ccc2[nH]c(C(=O)c3cc4ccccc4[nH]3)cc2c1 | 97.4 |
| Cc1cncc2cccc(S(=O)(=O)N3CCCN(C(=O)CN)C[C@@H]3C)c12 | 94 |
| Nc1nccc(-c2c(-c3ccc(F)cc3)ncn2C2CCNCC2)n1 | 92.9 |
| CC(=O)c1ccc(N2CCOCC2)cc1O | 90.6 |
| CCc1[nH]c(-c2ccc(OC)cc2)nc1-c1ccncc1 | 93.4 |
| CC#CC(=O)Nc1cc2c(Nc3ccc(F)c(Cl)c3)ncnc2cn1 | 2.54 |

Block 2 — time: 6 days; relative to: DMSO
SMILES: CC(C)C[C@@H]1NC(=O)[C@@H](N(C)C(=O)[C@H](CC2CCC2)NC(=O)[C@@H]2C[C@@H](F)CN2C(=O)C2(C(F)(F)F)CC(F)(F)C2)CCCCNC(=O)C2(CC2)NC(=O)[C@H](Cc2cc(Cl)ccc2Cl)N(C)C1=O
| cell line | conditions | relative cell count |
| --- | --- | --- |
| NCI-H82 DOX-inducible E2F1 WT, with doxycycline | 600 nM | 0.289 and 0.256 and 0.417 |
| NCI-H82 DOX-inducible E2F1 WT, with doxycycline | 60 nM | 0.925 and 0.982 and 0.904 |
| NCI-H82 DOX-inducible E2F1 WT, no doxycycline | 200 nM | 0.976 and 0.895 and 0.604 |
| Jurkat DOX-inducible E2F1 WT, no doxycycline | 200 nM | 0.622 and 0.389 and 0.671 |
| Jurkat DOX-inducible E2F1 WT, no doxycycline | 20 nM | 0.863 and 0.898 and 0.829 |
| NCI-H82 DOX-inducible E2F1 WT, no doxycycline | 20 nM | 0.962 and 1 and 1.13 |
| NCI-H82 DOX-inducible E2F1 WT, with doxycycline | 2 µM | 0.0669 and 0.0622 and 0.0921 |

Block 3 — cell line: A-375; tested at: 100 µM; time: 36 h
| SMILES | viability |
| --- | --- |
| NCCCC(N)(C(=O)O)C(F)F (stereo not drawn) | 103% |
| O=S(=O)(O)CCS | 92.3% |
| CC(CN(C)C)CN1c2ccccc2CCc2ccccc21 (stereo not drawn) | -1.21% |
| COc1ccccc1OCC(O)CO (stereo not drawn) | 92.5% |
| CC(C)(CO)C(O)C(=O)NCCCO (stereo not drawn) | 106% |
| OC[C@@H](O)[C@@H](O)[C@H](O)[C@@H](O)CO | 101% |
| CC(=O)c1ccc(O)c(C(=O)O)c1 | 97.3% |
| Nc1cc(-c2ccncc2)c[nH]c1=O | 107% |
| CCOc1cc([C@@H](CS(C)(=O)=O)N2C(=O)c3cccc(NC(C)=O)c3C2=O)ccc1OC | 97.3% |
| CC(=O)[C@H]1CC[C@H]2[C@@H]3CCC4=CC(=O)CC[C@]4(C)[C@H]3CC[C@]12C | 2.61% |
| NC(CO)C(=O)NNCc1ccc(O)c(O)c1O (stereo not drawn) | 25% |
| OC[C@@H](O)[C@H](O)[C@@H](O)CO | 117% |
| CC(=O)NS(=O)(=O)c1ccc(NC(=O)c2ccccc2C(=O)O)cc1 | 113% |

Block 4 — host: mouse; matrix: microsomes or S9; tested at: 2 µM; time: 0.5 h
| Structure (SMILES) | remaining compound [%] |
| --- | --- |
| Cc1[nH]ncc1CCCNCc1cnc2c(c1)c(C#N)cn2C(C)(C)C | 22.2 |
| COC(=O)c1c(C)nc2n(CCN3CCOCC3)c3ccccc3n12 | 1.45 |
| Cc1cc(-c2ccccc2)nc2c(Br)c(=O)[nH]n12 | 37.4 |
| CS(=O)(=O)c1cccc(Br)c1N1CCCC2(CNC(=O)O2)C1 (stereo not drawn) | 69.9 |
| CN(C)c1nc(Cl)nc(Oc2ccc(=O)n(C)n2)n1 | 30.8 |
| NC(N)=Nc1nc(-c2cc3ccccc3o2)cs1 | 8.06 |
| CS(=O)(=O)NCC1CCC(C(=O)NCC2CCS(=O)(=O)C2)CC1 (stereo not drawn) | 83.5 |
| COC(=O)c1cc(I)c(N)c(I)c1C | 78.6 |
| OC1(CN2CCC(c3nnc4ccccn34)CC2)CCNC1 (stereo not drawn) | 60.6 |
| Cn1ncc(C(=O)O)c1NC(=O)c1cc(Br)nn1-c1ncccc1Cl | 61.5 |
| COc1cc(C)c(Cl)cc1S(=O)(=O)Nc1ccc(Nc2cc(N(C)C)nc(C)n2)cc1 | 1.31 |
| Cc1ncc(-c2ccc(C)c(S(=O)(=O)NC(C)(C)C)c2)o1 | 5.47 |
| O=c1[nH]c2c(S(=O)(=O)c3ccc(Br)cc3)nnn2c2ccsc12 | 61.8 |
| Cc1nn(C)c2ncnc(N3CC(C)(C)N(C)C[C@@H]3C)c12 | 52.3 |
| CCCN(Cc1nnc(-c2ccco2)o1)C(=O)COc1c(Cl)cc(Cl)c2ccc(C)nc12 | 83.8 |

Some of these lines once more (block 2):
| cell line | conditions | relative cell count |
| --- | --- | --- |
| NCI-H82 DOX-inducible E2F1 WT, with doxycycline | 60 nM | 0.925 and 0.982 and 0.904 |
| NCI-H82 DOX-inducible E2F1 WT, no doxycycline | 200 nM | 0.976 and 0.895 and 0.604 |
| Jurkat DOX-inducible E2F1 WT, no doxycycline | 200 nM | 0.622 and 0.389 and 0.671 |
| Jurkat DOX-inducible E2F1 WT, no doxycycline | 20 nM | 0.863 and 0.898 and 0.829 |
